Measurements of several laboratories.
Each line is one published result; not all experiments were run side by side. Values joined by “and” are separate records of one study, mostly repeats; a detail may differ. Numbers after ± are the reported error.
BCHE: Cholinesterase (BCHE, Homo sapiens, UniProt P06276)
Sequence of UniProt O43614 (whole entry, unmodified, looked up): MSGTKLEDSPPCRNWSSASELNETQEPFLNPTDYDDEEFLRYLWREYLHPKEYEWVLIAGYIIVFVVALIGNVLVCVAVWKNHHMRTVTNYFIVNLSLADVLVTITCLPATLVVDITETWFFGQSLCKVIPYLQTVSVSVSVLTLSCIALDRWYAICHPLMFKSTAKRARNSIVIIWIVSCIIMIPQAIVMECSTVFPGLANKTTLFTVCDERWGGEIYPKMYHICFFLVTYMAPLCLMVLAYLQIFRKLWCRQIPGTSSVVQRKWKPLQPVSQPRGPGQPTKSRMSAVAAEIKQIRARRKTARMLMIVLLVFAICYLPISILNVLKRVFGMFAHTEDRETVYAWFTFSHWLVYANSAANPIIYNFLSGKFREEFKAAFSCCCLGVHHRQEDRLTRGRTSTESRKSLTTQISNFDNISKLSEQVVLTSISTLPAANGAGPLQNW
Sequence of UniProt P06276 (whole entry, looked up): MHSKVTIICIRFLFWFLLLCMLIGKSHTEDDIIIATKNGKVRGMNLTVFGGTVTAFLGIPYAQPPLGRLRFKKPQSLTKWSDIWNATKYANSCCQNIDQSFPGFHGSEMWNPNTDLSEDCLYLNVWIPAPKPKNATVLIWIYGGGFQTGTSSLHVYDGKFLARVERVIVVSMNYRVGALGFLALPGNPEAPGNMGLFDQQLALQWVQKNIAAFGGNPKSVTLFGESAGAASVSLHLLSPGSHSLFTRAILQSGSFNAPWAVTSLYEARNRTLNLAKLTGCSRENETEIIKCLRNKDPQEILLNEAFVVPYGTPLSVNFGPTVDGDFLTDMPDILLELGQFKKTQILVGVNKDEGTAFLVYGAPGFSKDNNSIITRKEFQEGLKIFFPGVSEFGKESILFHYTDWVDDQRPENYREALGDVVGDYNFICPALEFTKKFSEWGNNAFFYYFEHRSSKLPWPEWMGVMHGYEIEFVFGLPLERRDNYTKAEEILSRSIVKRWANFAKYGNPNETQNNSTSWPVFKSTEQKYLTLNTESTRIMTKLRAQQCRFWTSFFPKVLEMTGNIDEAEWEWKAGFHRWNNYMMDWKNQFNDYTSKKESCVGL
Sequence of UniProt Q7Z602 (whole entry, looked up): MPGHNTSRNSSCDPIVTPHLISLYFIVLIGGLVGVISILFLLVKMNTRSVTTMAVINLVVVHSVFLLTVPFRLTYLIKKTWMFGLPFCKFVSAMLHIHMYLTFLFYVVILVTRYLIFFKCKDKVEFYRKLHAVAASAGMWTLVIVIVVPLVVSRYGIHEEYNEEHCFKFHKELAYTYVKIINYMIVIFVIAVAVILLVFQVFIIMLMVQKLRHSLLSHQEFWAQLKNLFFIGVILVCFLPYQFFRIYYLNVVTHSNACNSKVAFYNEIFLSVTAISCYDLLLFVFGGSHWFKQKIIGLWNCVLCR
Sequence of UniProt Q9Y271 (whole entry, looked up): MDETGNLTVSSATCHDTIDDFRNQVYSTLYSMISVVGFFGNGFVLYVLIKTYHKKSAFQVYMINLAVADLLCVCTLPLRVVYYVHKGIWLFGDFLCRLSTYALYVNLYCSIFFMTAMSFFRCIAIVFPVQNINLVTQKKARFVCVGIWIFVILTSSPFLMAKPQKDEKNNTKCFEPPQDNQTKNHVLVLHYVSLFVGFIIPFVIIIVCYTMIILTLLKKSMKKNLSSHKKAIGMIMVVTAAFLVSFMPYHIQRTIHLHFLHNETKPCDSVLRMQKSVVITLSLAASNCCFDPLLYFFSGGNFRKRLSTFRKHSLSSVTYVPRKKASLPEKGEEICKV
Sequence of UniProt P32239 (whole entry, looked up): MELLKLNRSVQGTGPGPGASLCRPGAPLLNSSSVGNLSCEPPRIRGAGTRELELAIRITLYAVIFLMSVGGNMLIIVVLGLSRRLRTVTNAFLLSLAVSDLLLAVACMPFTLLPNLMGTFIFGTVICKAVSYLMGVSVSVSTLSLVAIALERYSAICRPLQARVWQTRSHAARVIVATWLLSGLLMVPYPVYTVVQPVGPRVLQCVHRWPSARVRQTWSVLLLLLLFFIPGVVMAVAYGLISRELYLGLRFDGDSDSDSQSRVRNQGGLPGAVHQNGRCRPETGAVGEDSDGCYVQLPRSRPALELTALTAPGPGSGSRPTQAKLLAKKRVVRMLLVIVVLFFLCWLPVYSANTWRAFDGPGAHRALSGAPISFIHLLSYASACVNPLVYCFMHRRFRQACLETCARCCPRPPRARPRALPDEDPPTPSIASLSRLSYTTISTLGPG
Sequence of UniProt Q07001 (whole entry, looked up): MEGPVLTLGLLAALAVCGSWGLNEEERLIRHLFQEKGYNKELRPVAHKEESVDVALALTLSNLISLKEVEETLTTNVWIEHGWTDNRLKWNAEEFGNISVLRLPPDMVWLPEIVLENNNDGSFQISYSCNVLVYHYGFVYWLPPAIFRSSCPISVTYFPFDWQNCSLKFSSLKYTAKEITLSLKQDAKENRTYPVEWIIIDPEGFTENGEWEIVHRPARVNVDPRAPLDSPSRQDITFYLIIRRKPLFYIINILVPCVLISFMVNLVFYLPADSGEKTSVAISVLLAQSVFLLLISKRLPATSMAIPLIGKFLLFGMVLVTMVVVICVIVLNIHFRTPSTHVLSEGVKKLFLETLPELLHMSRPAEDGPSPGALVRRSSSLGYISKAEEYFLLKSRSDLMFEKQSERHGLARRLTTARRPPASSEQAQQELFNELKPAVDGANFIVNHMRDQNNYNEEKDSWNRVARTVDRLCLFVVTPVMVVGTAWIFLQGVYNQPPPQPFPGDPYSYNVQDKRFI
Sequence of UniProt P29275 (whole entry, looked up): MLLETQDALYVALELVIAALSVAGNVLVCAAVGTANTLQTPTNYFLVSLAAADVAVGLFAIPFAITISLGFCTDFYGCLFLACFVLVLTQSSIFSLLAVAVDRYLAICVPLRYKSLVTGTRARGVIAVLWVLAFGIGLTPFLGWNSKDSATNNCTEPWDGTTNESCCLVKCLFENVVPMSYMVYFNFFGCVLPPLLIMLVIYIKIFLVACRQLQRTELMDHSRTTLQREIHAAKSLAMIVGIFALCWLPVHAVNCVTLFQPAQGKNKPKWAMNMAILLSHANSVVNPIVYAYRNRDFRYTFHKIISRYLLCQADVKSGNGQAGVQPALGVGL
Sequence of UniProt P14416 (whole entry, looked up): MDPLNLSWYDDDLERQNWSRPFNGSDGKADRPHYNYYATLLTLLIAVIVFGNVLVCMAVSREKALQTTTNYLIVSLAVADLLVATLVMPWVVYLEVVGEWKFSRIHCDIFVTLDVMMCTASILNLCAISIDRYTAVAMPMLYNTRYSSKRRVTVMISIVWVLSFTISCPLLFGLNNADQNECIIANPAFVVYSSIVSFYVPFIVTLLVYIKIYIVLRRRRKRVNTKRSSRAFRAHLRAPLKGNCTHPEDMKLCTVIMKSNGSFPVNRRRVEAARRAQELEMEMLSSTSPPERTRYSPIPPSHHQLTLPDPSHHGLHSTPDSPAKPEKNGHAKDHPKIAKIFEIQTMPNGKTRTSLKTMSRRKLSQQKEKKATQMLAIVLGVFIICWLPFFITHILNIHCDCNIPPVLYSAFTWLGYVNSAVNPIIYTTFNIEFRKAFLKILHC
Sequence of UniProt Q15759 (whole entry, looked up): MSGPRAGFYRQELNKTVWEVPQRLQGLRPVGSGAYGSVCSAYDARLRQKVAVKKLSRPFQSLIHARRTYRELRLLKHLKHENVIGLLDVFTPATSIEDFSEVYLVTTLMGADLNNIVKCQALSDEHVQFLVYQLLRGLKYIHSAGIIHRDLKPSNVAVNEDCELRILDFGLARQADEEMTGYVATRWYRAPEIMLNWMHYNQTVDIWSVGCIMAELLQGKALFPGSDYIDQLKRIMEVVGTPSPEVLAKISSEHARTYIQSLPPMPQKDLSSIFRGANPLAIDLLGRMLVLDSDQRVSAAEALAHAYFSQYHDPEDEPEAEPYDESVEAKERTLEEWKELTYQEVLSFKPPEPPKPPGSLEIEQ
Sequence of UniProt P10768 (whole entry, looked up): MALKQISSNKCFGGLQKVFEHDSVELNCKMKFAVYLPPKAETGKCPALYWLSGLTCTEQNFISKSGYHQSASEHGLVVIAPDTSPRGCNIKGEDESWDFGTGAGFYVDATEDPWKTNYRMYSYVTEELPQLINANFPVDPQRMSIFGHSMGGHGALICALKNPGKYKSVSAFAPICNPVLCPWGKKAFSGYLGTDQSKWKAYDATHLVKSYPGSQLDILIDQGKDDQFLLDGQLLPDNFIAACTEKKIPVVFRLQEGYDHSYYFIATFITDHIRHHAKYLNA
Sequence of UniProt P02708 (whole entry, looked up): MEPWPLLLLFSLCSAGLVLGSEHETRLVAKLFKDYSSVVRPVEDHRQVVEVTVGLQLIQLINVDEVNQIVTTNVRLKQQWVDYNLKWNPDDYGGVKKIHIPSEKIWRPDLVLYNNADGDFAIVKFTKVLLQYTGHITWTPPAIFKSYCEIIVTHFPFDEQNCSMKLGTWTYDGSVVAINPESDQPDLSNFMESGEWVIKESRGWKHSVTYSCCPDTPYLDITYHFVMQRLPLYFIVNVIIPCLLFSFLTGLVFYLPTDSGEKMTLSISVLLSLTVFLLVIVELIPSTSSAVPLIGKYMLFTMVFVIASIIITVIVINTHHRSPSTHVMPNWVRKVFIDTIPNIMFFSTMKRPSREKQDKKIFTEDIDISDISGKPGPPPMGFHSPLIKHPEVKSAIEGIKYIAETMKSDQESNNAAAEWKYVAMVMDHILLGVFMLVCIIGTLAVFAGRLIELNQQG

`Cc1cc(C(=O)NC(C)(C)COc2cccc3c2C(N)=NS(=O)(=O)N3)cc(C)n1` has a revertant ratio of 1.2 (Salmonella typhimurium; Ames test, initial; TA1535; 150 µg/plate, added: rat liver S9; relative to: solvent control).
`CC(C)[C@@H]1NC(=O)[C@H](Cc2ccccc2)NC(=O)[C@@H]2NC(=O)[C@H](Cc3ccccc3)NC(=O)[C@@H]3CCCN3C(=O)CNC(=O)[C@H](Cc3ccccc3)NC(=O)[C@@H]3CNCCCC[C@@H](C(=O)O)NC(=O)[C@@H]4NC(=O)[C@H](CC(N)=O)NC(=O)CNC(=O)[C@H]([C@@H](O)C(=O)O)NC(=O)[C@H](CSC[C@@H](NC(=O)[C@H](CCC(N)=O)NC(=O)[C@H](CCCCNC(=O)c5ccc(NN)nc5)NC(=O)[C@@H](N)CS[C@H]4C)C(=O)N[C@@H](CS[C@H]2C)C(=O)N3)NC1=O` [technetium-99m labelled] has a tissue uptake of 0.08 ± 0.02 %ID/g (rat, saline control, stomach; intravenous, 2 h after tracer, tracer 2 h after reperfusion).
`C[C@@H](C1=C(CCN(C)C)Cc2ccccc21)c1ccccn1.O=C(O)/C=C\C(=O)O` gave an efficacy of -97.3 ± 6.58% (BCHE; inhibitor).
For `CNC(=O)[C@@H](c1ccccc1)N1CCc2cc(OC)c(OC)cc2[C@@H]1CCc1ccc(C(F)(F)F)cc1`, “normalised fluorescence response” read -1.96 and -2.3 and -1.6 and -1.75 and 1.7 and -3.02 and 1.59 (HCRTR2 (Homo sapiens, UniProt O43614, del254-292/I293E/K294R/L160H/M161K/Q254E); fluorescence sensor response, fluorescence; concentration not given).
`O=C(c1ccc(Cl)cc1)N1CCN2C(=O)N(OC(=O)N3CCOc4ccccc43)C(=O)C2C1` (stereo not drawn) — result for “mean protein ratio”: 1.26 (S-formylglutathione hydrolase (Homo sapiens, UniProt P10768); MS-based ABPP; SW-620 conditioned medium; 10 µM, 1 h, 37 °C; relative to: treated over control).
For `COc1cc(Nc2ncc(F)c(Nc3ccc4c(n3)NC(=O)C(C)(C)O4)n2)cc(OC)c1OC`, the IC50 was greater than 10 µM (CYSLTR1 (Homo sapiens, UniProt Q9Y271); binding).
`Cc1c(C(=O)NN2CCCCC2)nn(-c2ccc(Cl)cc2Cl)c1-c1ccc(Cl)cc1` — result for “reduction of basal binding”: 6.05 ± 2.3% (TC-71; inverse agonist; membranes; concentration not given).
With `CN(C(=O)n1cnc(-c2ccc[n+]([O-])c2)c1)C1CCCCC1` the inhibition was -9% (glycine transporter, rat; binding; 10 µM, added: [3H]glycine).
`C[C@H]1CN(c2n[nH]c3nc(N[C@H]4CC[C@H](NS(=O)(=O)CCC(F)(F)F)CC4)ncc23)CCO1` gave a relative abundance of 1.54 (PSMD3 (Homo sapiens, UniProt O43242); inhibitor, Kinobeads competition profiling; 0.8 µM; relative to: vehicle).
For `C[C@@H](O)[C@@H](CO)NC(=O)[C@@H](CCCNC(=N)N)NC(=O)[C@@H]1CCCN1C(=O)[C@@H]1CSSC[C@H](NC(=O)[C@H](Cc2ccccc2)NC(=O)CN2CCN(CC(=O)O)CCN(CC(=O)O)CCN(CC(=O)O)CC2)C(=O)N[C@@H](Cc2ccc(O)cc2)C(=O)N[C@@H](Cc2ccccc2)C(=O)N[C@@H](CCC(N)=O)C(=O)N[C@@H](CC(N)=O)C(=O)N1` [gallium-68 labelled], the tissue uptake was 0.04 %ID/g (Wistar rat, healthy, Lacrimal gland; intravenous, 8 MBq, 120 min, mean).
For `COc1cc(N)c(Cl)cc1C(=O)NC[C@@H]1CCN2CCC[C@@H]12.Cl`, the efficacy was -48.8 ± 16.9% (BCHE; concentration not given, Triton).
With `Fc1ccc([C@@H]2CCNC[C@H]2COc2ccc3c(c2)OCO3)cc1` the IC50 was 6.31 µM (Plasmodium falciparum; HB3).
For `CO[C@H]1C[C@@H]2CC[C@@H](C)[C@@](O)(O2)C(=O)C(=O)N2CCCC[C@H]2C(=O)O[C@H]([C@H](C)C[C@@H]2CC[C@@H](OC(=O)NCCOCCOCCOCCOCCOCCOCCOCCOCCC(=O)N3CCc4cc(Cn5nc(-c6ccc7oc(N)nc7c6)c6c(N)ncnc65)ccc4C3)[C@H](OC)C2)C[C@@H](O)[C@H](C)/C=C(\C)[C@@H](O)[C@@H](OC)C(=O)[C@H](C)C[C@H](C)/C=C/C=C/C=C/1C`, the headache incidence was 16.7% (patients with advanced solid tumours; intravenous, 6 mg weekly, any grade).
For `Cl.Cl.Clc1ccccc1CNCC1CCC(CNCc2ccccc2Cl)CC1` (stereo not drawn), the efficacy was -83.8 ± 15.7% (BCHE; inhibitor).
`CC[C@H](C)[C@H](NC(=O)[C@H](Cc1ccccc1)NC(=O)[C@H](CCC(=O)O)NC(=O)[C@H](CCCNC(=N)N)NC(=O)[C@H](C)NC(=O)[C@H](C)NC(=O)[C@H](CCC(N)=O)NC(=O)[C@H](CCC(=O)O)NC(=O)[C@H](CCC(=O)O)NC(=O)[C@H](CC(C)C)NC(=O)[C@H](Cc1ccc(O)cc1)NC(=O)[C@H](CO)NC(=O)[C@H](CO)NC(=O)[C@@H](NC(=O)[C@H](CC(=O)O)NC(=O)[C@H](CO)NC(=O)[C@@H](NC(=O)[C@H](Cc1ccccc1)NC(=O)[C@@H](NC(=O)CNC(=O)[C@H](CCC(=O)O)NC(=O)[C@H](C)NC(=O)CCc1c[nH]cn1)[C@@H](C)O)[C@@H](C)O)C(C)C)C(=O)N[C@@H](C)C(=O)N[C@@H](Cc1c[nH]c2ccccc12)C(=O)N[C@@H](CC(C)C)C(=O)N[C@H](C(=O)N[C@@H](CCCNC(=N)N)C(=O)NCC(=O)N[C@@H](CCCNC(=N)N)C(=O)N[C@@H](CCCCNC(=O)COCCOCCNC(=O)COCCOCCNC(=O)CC[C@H](NC(=O)CCCCCCCCCCCCCCCCC(=O)O)C(=O)O)C(=O)NCC(=O)NCC(=O)N[C@@H](CO)C(=O)N[C@@H](CCCCNc1c(NCCCCCN(O)C(=O)CCC(=O)NCCCCCN(O)C(=O)CCC(=O)NCCCCCN(O)C(C)=O)c(=O)c1=O)C(=O)O)C(C)C` [zirconium-89 labelled] gave a tissue uptake of 0.13 %ID/g (gamma counting; rat, stomach-duodenum content; subcutaneous, 3 nmol/kg, 4 h).
`CC(C)CN1CCc2ccc(Br)cc21` gave an IC50 of 2 µM (Plasmodium falciparum; W2).
`O=C(Nc1cccnn1)N1CCC(=Cc2cccc(Oc3ccc(C(F)(F)F)cn3)c2)CC1` gave an inhibition of 4.3% (Abhydrolase domain-containing protein 11 (Rattus norvegicus, UniProt D3ZXK4); probe labelling, inhibitor, competitive ABPP with azido-FP probe, measured: Abhd11; rat brain membrane fraction; 0.1 µM).
`C[C@]1(O)CC[C@@]2(C)[C@@H](CC[C@@H]3[C@@H]2CC[C@]2(C)[C@@H]([N+](=O)[O-])CC[C@@H]32)C1`: activity “inactive” ([3H]flunitrazepam binding; rat cerebral cortex homogenate; concentration not given).
The inhibition of `CNC1(c2ccccc2Cl)CCCCC1=O` (racemic) is reported as -2% (D(2) dopamine receptor, short isoform (DRD2, Homo sapiens, UniProt P14416); radioligand binding, agonist, radioligand displacement; 30 µM).
`C[C@@H](N[C@H]1CCCC[C@@H]1NC(=O)c1ccc(Cl)cc1)c1cccc2ccccc12.Cl` gave an efficacy of -111 ± 10.3% (BCHE; concentration not given, Triton).
Under “log2 fold change”, `Oc1ccc2c3c1O[C@H]1[C@@H](O)CC[C@@]4(O)[C@@H](C2)N(CC2CCC2)CC[C@]314` is recorded as 0.541 (Probable G-protein coupled receptor 141 (GPR141, Homo sapiens, UniProt Q7Z602); β-arrestin recruitment, TANGO luminescence, measured: GPR141; concentration not given; relative to: basal luminescence).
`O=C(Nc1cnccc1Cl)N1CCN(Cc2ccc3c(c2)OC(F)(F)O3)CC1` gave an inhibition of 1% (CCKBR (Homo sapiens, UniProt P32239); radioligand binding; concentration not given).
With `CC[C@H]1CN2CC[C@H]1C[C@H]2[C@H](O)c1ccnc2ccc(OC)cc12` the efficacy was -54.3 ± 5% (BCHE; inhibitor; Triton).
`COc1ccc(N2C(=O)N(c3c(C)cccc3Cl)Cc3cnc(Nc4ccc(C5CCN(C)CC5)cc4OC)nc32)nc1` gave an inhibition of 84% (MAPK11 (Homo sapiens, UniProt Q15759); kinase activity, inhibitor; 0.5 µM, kinase P38-BETA).
With `COc1cc(O)ccc1OCCNCC(O)COc1cccc2[nH]c3ccccc3c12` (stereo not drawn) the efficacy was -100 ± 2.04% (BCHE; inhibitor).
Under “log2 fold change”, `CC[C@H](C)[C@H](NC(=O)CNC(=O)[C@@H](N)CCCCN)C(=O)N[C@@H](CC(C)C)C(=O)N[C@@H](CCCCN)C(=O)N[C@@H](CCCNC(=N)N)C(=O)N[C@@H](CCC(=O)O)C(=O)N[C@@H](CCCCN)C(=O)N[C@@H](CCCNC(=N)N)C(=O)N[C@@H](CC(C)C)C(=O)N[C@@H](CCCNC(=N)N)C(=O)N[C@@H](CCCNC(=N)N)C(=O)N[C@@H](CCCCN)C(=O)N[C@@H](CC(N)=O)C(=O)N[C@H](C(=O)N[C@@H](Cc1c[nH]cn1)C(=O)N[C@@H](Cc1c[nH]c2ccccc12)C(=O)N1CCC[C@H]1C(=O)N[C@@H](CCC(=O)O)C(=O)N[C@@H](CCC(=O)O)C(=O)NCC(=O)N[C@@H](CCCCN)C(=O)N[C@@H](CC(C)C)C(=O)N[C@@H](CCCNC(=N)N)C(=O)N[C@@H](CCC(=O)O)C(=O)N[C@@H](Cc1ccccc1)C(=O)N[C@@H](Cc1ccccc1)C(=O)N[C@@H](Cc1ccccc1)C(=O)N[C@@H](Cc1ccccc1)C(=O)N[C@@H](CCC(=O)O)C(=O)N[C@@H](CC(C)C)C(=O)N[C@@H](CC(=O)O)C(=O)N[C@@H](CCC(=O)O)C(=O)N[C@@H](C)C(=O)N[C@@H](CCC(=O)O)C(=O)N[C@@H](CCCNC(=N)N)C(=O)N[C@H](C(=O)N[C@@H](CC(N)=O)C(=O)N[C@H](C(=O)O)C(C)C)C(C)C)C(C)C` is recorded as -0.07 (HeLa and HEK-293T cells; phosphatase bead binding, competitive inhibitor, PIB pulldown iBAQ LC-MS/MS, measured: PPP5C; concentration not given; relative to: untreated control).
For `CC[C@H](C)[C@@H]1NC(=O)[C@@H]2CCCN2C(=O)[C@H](CC(C)C)NC(=O)[C@H](CC(C)C)NC(=O)CNC(=O)[C@@H](NC(=O)[C@@H](NC(=O)[C@H](CC(=O)O)NC(=O)CNC(=O)[C@@H](NC(=O)[C@H](C)NC(=O)CNC(=O)[C@H](CCCCN)NC(=O)[C@H](CC(C)C)NC(=O)[C@H](CC(C)C)NC(=O)[C@H](CCCCN)NC(=O)CNC(=O)[C@@H](NC(=O)[C@@H](N)CC(C)C)C(C)C)C(C)C)C(C)C)CSSC[C@@H](C(=O)O)NC1=O`, “log2 fold change” read -1.04 (RNA-seq, measured: Filip1l; mouse, traumatic brain injury model, frontal cortex and hippocampus; dose not given; relative to: TBI alone).
`CCOC(=O)C1(CCOc2ccccc2)CCN(Cc2ccc(O)c(Cl)c2)CC1` gave an efficacy of -90.8 ± 8.17% (BCHE; concentration not given, Triton).
With `C=CCN1CC[C@]23c4c5ccc(O)c4O[C@H]2C(=O)CC[C@]3(O)[C@H]1C5` the inhibition was -5.6% (CHRNA1/Acetylcholine receptor subunit delta (Homo sapiens, UniProt P02708+Q07001); concentration not given).
`CN1CCN(c2cc(-c3ccncc3)c(-c3ccc4ccccc4c3)nn2)CC1` has an inhibition of 11.6% (ADORA2B (Homo sapiens, UniProt P29275); antagonist, FLIPR; 10 µM).

For quick reference, copied from above:
For `CC[C@H](C)[C@@H]1NC(=O)[C@@H]2CCCN2C(=O)[C@H](CC(C)C)NC(=O)[C@H](CC(C)C)NC(=O)CNC(=O)[C@@H](NC(=O)[C@@H](NC(=O)[C@H](CC(=O)O)NC(=O)CNC(=O)[C@@H](NC(=O)[C@H](C)NC(=O)CNC(=O)[C@H](CCCCN)NC(=O)[C@H](CC(C)C)NC(=O)[C@H](CC(C)C)NC(=O)[C@H](CCCCN)NC(=O)CNC(=O)[C@@H](NC(=O)[C@@H](N)CC(C)C)C(C)C)C(C)C)C(C)C)CSSC[C@@H](C(=O)O)NC1=O`, “log2 fold change” read -1.04 (RNA-seq, measured: Filip1l; mouse, traumatic brain injury model, frontal cortex and hippocampus; dose not given; relative to: TBI alone).
`CCOC(=O)C1(CCOc2ccccc2)CCN(Cc2ccc(O)c(Cl)c2)CC1` gave an efficacy of -90.8 ± 8.17% (BCHE; concentration not given, Triton).
With `C=CCN1CC[C@]23c4c5ccc(O)c4O[C@H]2C(=O)CC[C@]3(O)[C@H]1C5` the inhibition was -5.6% (CHRNA1/Acetylcholine receptor subunit delta (Homo sapiens, UniProt P02708+Q07001); concentration not given).
